Measurements pooled from the literature.
Numbered parts are unrelated; each lists some results of a single study. Positions count from the first letter of the parent shown.

Sample 1
Target: CCNB2, cyclin fold, Cln2 fusion (human)
Technique: yeast growth competition, sequencing
Medium: yeast
Setting: weak parent motif
Reference: not given
Reading: higher = stronger binding
Quantity: normalised enrichment score
Parent: ASZ1 docking peptide (human); GFGFLLFICKLTF; partner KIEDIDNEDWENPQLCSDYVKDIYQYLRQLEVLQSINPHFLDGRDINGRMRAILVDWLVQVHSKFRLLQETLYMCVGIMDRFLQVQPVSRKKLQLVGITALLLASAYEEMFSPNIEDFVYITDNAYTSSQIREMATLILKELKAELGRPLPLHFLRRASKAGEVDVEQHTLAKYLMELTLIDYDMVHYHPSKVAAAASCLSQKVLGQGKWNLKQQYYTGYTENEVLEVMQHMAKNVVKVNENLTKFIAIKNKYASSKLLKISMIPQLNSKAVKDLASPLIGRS
L6A: -0.178
C9A: 0.649
K10A: 0.589
F13A: 0.415
G1A: 0.633
L5A: 0.284

Sample 2
Target: UBE2Q2 UBC core domain (UniProt Q8WVN8)
Sequence of UniProt Q8WVN8 (whole entry, looked up): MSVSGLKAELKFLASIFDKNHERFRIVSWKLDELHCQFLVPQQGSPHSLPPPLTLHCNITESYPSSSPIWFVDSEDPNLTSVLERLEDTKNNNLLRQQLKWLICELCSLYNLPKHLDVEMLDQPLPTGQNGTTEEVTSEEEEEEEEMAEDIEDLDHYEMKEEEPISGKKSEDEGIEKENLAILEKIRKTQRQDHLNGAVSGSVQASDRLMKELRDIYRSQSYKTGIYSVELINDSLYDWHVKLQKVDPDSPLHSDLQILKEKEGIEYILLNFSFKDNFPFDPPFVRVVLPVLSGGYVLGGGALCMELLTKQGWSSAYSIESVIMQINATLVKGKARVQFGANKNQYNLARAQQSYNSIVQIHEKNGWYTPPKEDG
Technique: yeast two-hybrid
Medium: yeast
Setting: mostly zero background
Reference: not given
Reading: higher = stronger interaction
Quantity: lacZ reporter activity
B1: RUFY1 RING domain (UniProt Q96T51); chain QALKGHAWLKDDEATHCRQCEKEFSISRRKHHCRNCGHIFCNTCSSNELALPSYPKPVRVCDSCHTLLLQRCSSTAS
B2: RNF103 RING domain (UniProt O00237); chain WPADMLHCTECVVCLENFENGCLLMGLPCGHVFHQNCIVMWLAGGRHCCPVCRWPSYKKKQPY
B3: ZMYND11 RING domain (UniProt Q15326); chain DEIDWETENHDWYCFECHLPGEVLICDLCFRVYHSKCLSDEFRLRDSSSPWQCPVCRSIKKKNTNKQEM
B4: RNF186 RING domain (UniProt Q9NXI6); chain HSGSTECDLECLVCREPYSCPRLPKLLACQHAFCAICLKLLLCVQDNTWSITCPLCRKVTAVPGGLI
B5: NFX1 RING domain (UniProt Q12986); chain IEQLTTEKYECMVCCELVRVTAPVWSCQSCYHVFHLNCIKKWARSPASQADGQSGWRCPACQNVSAHVPNTY
B1 (RUFY1 RING domain): 0
B2 (RNF103 RING domain): 0
EIKEYKARLTCPCCNTRKKDAVLTKCFHVFCFECVRGRYEARQRKCPKCNAAFGAHDFHR (RNF40 RING domain (UniProt O75150)): 0
B3 (ZMYND11 RING domain): 0
B4 (RNF186 RING domain): 0
B5 (NFX1 RING domain): 0

Sample 3
Target: RING finger protein unkempt homolog, zinc fingers 1-6, GST-SBP tag (UNK, Homo sapiens, UniProt Q9C0B0, residues 30-357)
Sequence of UniProt Q9C0B0 (30-357, looked up): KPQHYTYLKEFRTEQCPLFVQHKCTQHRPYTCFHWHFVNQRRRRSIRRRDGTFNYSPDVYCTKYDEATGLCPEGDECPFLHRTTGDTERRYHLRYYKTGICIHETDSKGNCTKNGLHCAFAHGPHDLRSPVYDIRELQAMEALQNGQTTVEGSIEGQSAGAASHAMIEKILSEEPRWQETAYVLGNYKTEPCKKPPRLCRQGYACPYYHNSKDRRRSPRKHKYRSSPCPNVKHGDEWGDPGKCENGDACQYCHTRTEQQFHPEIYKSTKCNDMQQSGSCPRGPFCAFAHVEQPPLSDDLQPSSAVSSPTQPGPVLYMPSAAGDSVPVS
Technique: RNA Bind-n-Seq
Form: RNA
Medium: in vitro
Concentration: not given
Setting: RNA with constant flanks, human and mouse sites, ends assumed
Reference: input RNA pool
Reading: higher = stronger binding
Quantity: bound/input enrichment
All sequences stand within: GGGAGUUCUACAGUCCGACGAUC … CAACAGAGGAUUGAGCAUCA
CUGCCGACUGCAUUUAGUCUGGUCUCUUAACAGUUGCUUUCCUUGUCUGAUUCCCAAGUUUAGCAUUUUCAAAUUCAGAGUUCACAGAACACUUCUGGGUCUAAGCUUCCUUAAGGGGGA: 2.71 ratio
AUCAAUGCUGUGGUCCUGCUGAUCCUGCUGAGUGCCCUGGCAGAUCCCAAUCAGUAUCACUUUUCAGGCUCUGAACUAGGAGGGGAGUUUGAGUUCAUGGAUGAUGCCAACAUGUGCAUU: 0.32 ratio
GUACAGUUAACCGUGCAGUACAGAAUGAACAGUAAAAUUAUGUCCUUAAGUAAUAAGCUGACCUAUGAGGGCAAGCUGGAGUGUGGAUCAGACAAAGUGGCCAAUGCAGUGAUAAACCUA: 0.409 ratio
GAAAUGCUGACAAGAUGUGGCAUUGGUAAGUUGCUACUCUUUGAUUAUGACAAGGUGGAACUAGCCAAUAUGAAUAGACUUUUCUUCCAACCUCAUCAAGCAGGAUUAAGUAAAGUUCAA: 0.19 ratio
GAACACAGUAUGUAGGUCAAACUGGCAGUAACAGUGUACAGCCUUUGACAAACUAGAAAUAUUAGAGUAGGCCAAACACACCUCCAAACUGUAAGGCUGUGCACAAACAUAAAAAAUGGC: 6.59 ratio
GUCAUUCAGAUGGACUUCUCUGCAGAUAGCAGACAUCUCCAGGUUUCUAGUGGCUGCUAUAAACGGCAUGUCUAUGAAGUGCCUUCAGGAAAACACCUUGUGGAUCAUGCUGCCAUUGAC: 0.199 ratio
GCAGUUACCAGUUUCAGCAGGCUUUGCUUUUAUACUGUUGUGAAAUUUCAUCUCUCUGUGUAGCACCUUCCUUUUUUCCAUUGUAGAUAUAAAAAGUGACUUUUGCCUCAUGAAAGAGUU: 1.64 ratio
GUUCUCAGUAGUCCGAACUCUAAUAUGAGCAGCAUGGUAGUUACAGCCAAUGGUAAUGAUAGUAAAAAAUUUAAAGGAGAAGAUAAAAUGGAUGGUGCUCCUUCUCGUGUACUUCAUAUU: 15.9 ratio

Sample 4
Target: ABI1, truncated, D143A, DHFR fusion (Arabidopsis thaliana)
Technique: DHFR PCA, deep sequencing
Medium: yeast
Setting: methotrexate growth selection, single substitutions
Together with: (+)-ABA 0.39 µM
Reference: wild-type fitted maximum
Reading: higher = stronger binding
Quantity: relative binding score
Parent: PYL1, truncated, DHFR fusion (Arabidopsis thaliana); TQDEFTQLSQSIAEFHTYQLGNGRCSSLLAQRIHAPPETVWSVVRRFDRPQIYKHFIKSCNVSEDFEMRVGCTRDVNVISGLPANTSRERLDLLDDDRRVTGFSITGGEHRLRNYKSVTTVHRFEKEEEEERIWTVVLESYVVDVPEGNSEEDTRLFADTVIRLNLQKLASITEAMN
T119I: -9.64%
G108A: 2.31%
L166R: 7.76%
E89A: -11.1%
I172W: -13.3%
D3A: 40.4%
G21N: 31.2%
E147I: 17.7%
I33D: -3.56%
D3H: 37.2%
K126R: 51%
I79H: 35.4%
V136A: 1.09%
R24A: 9.57%
N77D: 38.6%
N85I: 65.6%
S26C: 36.9%
S117E: -14.2%
Y115L: -6.98%
Q7V: 42%
R113F: 1.07%
I33A: -0.879%
T6E: 65.4%
R69Q: 38.4%
E64H: 42.1%

Sample 5
Target: Histone acetyltransferase KAT6A, winged helix 1, GST fusion (KAT6A, Homo sapiens, UniProt Q92794, residues 1-85)
Technique: protein binding microarray
Form: double-stranded DNA, one strand shown
Medium: in vitro
Concentration: not given
Setting: 8-mer, flanks averaged, mean of 2 arrays, mostly near background
Reference: not given
Reading: higher = stronger binding
Quantity: E-score
Construct (chain): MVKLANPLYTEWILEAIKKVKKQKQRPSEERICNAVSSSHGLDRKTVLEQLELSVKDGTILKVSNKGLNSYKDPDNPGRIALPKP
CATAAGAC: 0.0737
CATAACTA: -0.00608
GAAACATA: 0.0484
ACCTGAGA: -0.224
CTGCGGGC: 0.238
GCAGTCAC: -0.104
GGGTCACA: -0.00914
GCGTGAAA: 0.0414
AAGGTAGT: -0.0446
AGGAAGCA: -0.274
CCGACGAG: 0.0712
AGTATCCC: -0.00556
AATAGTAT: -0.164
TCTCGTCA: -0.234
CGGCATCA: 0.332
ATGTTTAA: -0.161
ACTGTCAT: -0.104
CTGTTACA: 0.069
CCAGCGGG: 0.306
CGTGGTCC: 0.167
AGGTATGA: -0.136
CATCGTCC: -0.0996
CCTTTGAG: -0.215
CAGTGTCG: -0.0104
ACTCAGTC: -0.21

A few entries again (sample 5):
ACCTGAGA: -0.224
TCTCGTCA: -0.234
CATAACTA: -0.00608
ACTGTCAT: -0.104
GCGTGAAA: 0.0414
CATAAGAC: 0.0737
CTGCGGGC: 0.238
CCGACGAG: 0.0712
AGGTATGA: -0.136
AAGGTAGT: -0.0446
CGGCATCA: 0.332
